Results from different studies.
Each numbered part is a random draw from the data of one study; scales do not carry over between parts.

Series 1
Target: Protein C-ets-1 (ETS1, Homo sapiens, UniProt P14921, residues 1-441, K379A, full length assumed)
Method: protein-binding microarray
Form: double-stranded DNA, one strand shown
Medium: in vitro
Concentration: not given
Notes: k-mer, scored over probes, only values ≥0.25
Reading: higher = stronger binding
Quantity: E-score
Residues (chain): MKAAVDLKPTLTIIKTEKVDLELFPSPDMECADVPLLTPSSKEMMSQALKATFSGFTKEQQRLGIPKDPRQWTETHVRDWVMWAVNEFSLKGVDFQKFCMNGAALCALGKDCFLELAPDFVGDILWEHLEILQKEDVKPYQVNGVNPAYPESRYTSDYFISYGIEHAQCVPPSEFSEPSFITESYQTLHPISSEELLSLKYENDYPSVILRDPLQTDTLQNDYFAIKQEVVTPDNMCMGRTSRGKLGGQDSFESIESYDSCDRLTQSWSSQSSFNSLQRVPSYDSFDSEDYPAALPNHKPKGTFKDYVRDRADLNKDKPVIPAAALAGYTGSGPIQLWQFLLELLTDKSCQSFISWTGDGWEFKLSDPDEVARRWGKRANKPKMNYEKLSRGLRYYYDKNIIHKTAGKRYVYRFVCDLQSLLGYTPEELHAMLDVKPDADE
GGTGGGGA: 0.347
CAACCGGG: 0.361
ACGGCCGG: 0.273
CGGGCGGA: 0.265
ACCACAAA: 0.296
ATACCACC: 0.295
CGGTTTGC: 0.318
CCGCACCC: 0.302
ATCCCGGG: 0.279
AACATGTC: 0.274
ACGCGTAA: 0.261
GGTACTAC: 0.252
GTGGTACA: 0.264
CCTATCCC: 0.275
ATATATGA: 0.253
CACCGGTA: 0.444
CTTCCGCA: 0.275
CACATGTA: 0.267
CGGCGTCC: 0.268
CGGTAATC: 0.325
GACCGGGA: 0.456
CGACAATC: 0.261
CGGTACCG: 0.483
CCCGGGAA: 0.29

Series 2
Target: Interferon regulatory factor 7, full length, phosphomimetic (IRF7, Homo sapiens, UniProt Q92985, residues 1-503, S101K/S471D/S472D/S475D/S476D/S477D/S483D/S484D/S487D)
Method: protein-binding microarray
Form: double-stranded DNA, one strand shown
Medium: in vitro
Concentration: 250 nM
Notes: 60-bp whole probe
With: salmon DNA 0.4 mg/ml
Relative to: random background probes
Reading: higher = stronger binding
Quantity: log fluorescence
All sequences stand within: GCCTAGCAC … GTCTTGATTCGCTTGACGCTGCTG
Residues (chain): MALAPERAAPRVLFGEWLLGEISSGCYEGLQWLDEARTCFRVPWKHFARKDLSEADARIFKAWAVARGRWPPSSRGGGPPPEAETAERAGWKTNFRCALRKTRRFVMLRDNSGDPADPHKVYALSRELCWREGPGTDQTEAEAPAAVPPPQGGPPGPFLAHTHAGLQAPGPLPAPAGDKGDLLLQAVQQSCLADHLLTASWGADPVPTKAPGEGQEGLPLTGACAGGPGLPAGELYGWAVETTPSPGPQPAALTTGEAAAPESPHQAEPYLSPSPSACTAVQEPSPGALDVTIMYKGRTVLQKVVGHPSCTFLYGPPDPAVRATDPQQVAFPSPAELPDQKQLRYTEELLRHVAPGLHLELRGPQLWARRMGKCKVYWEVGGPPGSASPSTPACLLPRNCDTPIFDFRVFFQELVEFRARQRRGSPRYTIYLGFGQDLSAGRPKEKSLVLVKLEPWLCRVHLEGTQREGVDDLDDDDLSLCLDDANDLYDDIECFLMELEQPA
TTAGAACAGAGACTGGATTAGTGCTAG: -0.0497 z-score
GACGGTATCGGTATCGGGAAGTGCTAG: 1.41 z-score
GACGGTTTCGTCACTGGGGACGTGCTA: 1.97 z-score
TCAAATGATTGGTTGAAACTGTGCTAG: -0.269 z-score
GACGATACCGGGTATCGAGACGTGCTA: 0.251 z-score
CTTGCTCTGTGCATAGGTCTGTGCTAG: -0.431 z-score
CTTTAACTCATTTTCGTTTTGTGCTAG: 7.99 z-score
TCTGATTTCTCAAACAGCTCGTGCTAG: 0.576 z-score
CTGGCTGGGGTGGTGGCAGTGTGCTAG: -1.48 z-score
GACGGTATCGACTATCGGGGCGTGCTA: -0.215 z-score
GACGGTATCGTTTTCCTGACGTGCTAG: 4.8 z-score
GACGATTTCAGGTCCGAGACGTGCTAG: 0.185 z-score
TTAGAAATCGGGTATCGATTAGTGCTA: 0.765 z-score
TTAGTTCTCAGTATCGATTAGTGCTAG: 1.81 z-score
GACGAATTCAGTCTCGAGACGTGCTAG: 0.55 z-score
TTAGAACTGACTCTCGATTAGTGCTAG: 0.0274 z-score
GACGGTTACCTACTGCTGACGTGCTAG: -0.253 z-score
GGTACAAACTTGTAATTATAGTGCTAG: -0.0258 z-score
TTAGAACTGGGGTATAGATTAGTGCTA: -0.394 z-score
CACGATCTCAGTATCGAGACGTGCTAG: 0.391 z-score
TCATTAATCACATATACAACTGTGCTA: 0.986 z-score
GTCAGCGGTGGTGTTCGGTGGTGCTAG: -1.07 z-score
GACGGTTTCGGTATCGGGAAGTGCTAG: 10.6 z-score
GTCACTCTCAGAATCTCTCAGTGCTAG: 0.454 z-score
TCATTTTGTGTTTTCATACTGTGCTAG: 1.97 z-score

Series 3
Target: Histone acetyltransferase KAT6A, winged helix 2, GST fusion (KAT6A, Homo sapiens, UniProt Q92794, residues 85-181)
Method: protein binding microarray
Form: double-stranded DNA, one strand shown
Medium: in vitro
Concentration: not given
Notes: 8-mer, flanks averaged, mean of 2 arrays, mostly near background
Relative to: not given
Reading: higher = stronger binding
Quantity: E-score
Residues (chain): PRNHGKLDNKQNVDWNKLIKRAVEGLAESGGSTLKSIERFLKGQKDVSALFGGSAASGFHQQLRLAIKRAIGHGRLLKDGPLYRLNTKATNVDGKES
GTACTCTA: -0.18
CATGAGTC: -0.157
CATCTTAG: 0.0194
ACTTGTCG: -0.0986
ATCATTCA: 0.0469
AAGTCCCC: -0.117
ACCCTCAT: -0.199
ATCGTGTC: -0.078
AAATCTCC: -0.0425
CAAGCGCC: 0.068
CATAGCCG: 0.0826
CACAAGTA: -0.302
ACCGCTGG: 0.0534
CCATACAC: -0.0986
GAACATGA: -0.0871
CAGTGTCG: -0.06
AGCCTGTG: -0.13
TAGTTGCA: 0.0322
GCCCAGGA: 0.0641
ACAAAAAA: 0.0886
AAAAAACG: -0.0205
GGCTTTTA: -0.132
AGCTGTAG: -0.046
CGAAAATC: 0.108

Series 4
Target: RING finger protein unkempt homolog, zinc fingers 1-6, GST-SBP tag (UNK, Homo sapiens, UniProt Q9C0B0, residues 30-357)
Method: RNA Bind-n-Seq
Form: RNA
Medium: in vitro
Concentration: not given
Notes: RNA with constant flanks, human-mouse chimeric sites, ends assumed
Relative to: input RNA pool
Reading: higher = stronger binding
Quantity: bound/input enrichment
All sequences stand within: GGGAGUUCUACAGUCCGACGAUC … CAACAGAGGAUUGAGCAUCA
Residues (chain): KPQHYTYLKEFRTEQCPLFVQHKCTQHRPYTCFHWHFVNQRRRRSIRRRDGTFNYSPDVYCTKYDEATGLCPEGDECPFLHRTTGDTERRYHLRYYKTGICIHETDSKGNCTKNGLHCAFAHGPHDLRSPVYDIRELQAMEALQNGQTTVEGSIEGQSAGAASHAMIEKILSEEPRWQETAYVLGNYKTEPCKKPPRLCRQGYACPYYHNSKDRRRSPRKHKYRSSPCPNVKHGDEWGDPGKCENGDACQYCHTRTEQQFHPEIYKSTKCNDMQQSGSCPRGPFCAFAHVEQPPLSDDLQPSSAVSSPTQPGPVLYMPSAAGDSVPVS
GUGACUGGUGUUAAGAUUUCCCCUCAGCAAAGAAGUGCAGUAGUCACCAUAAUUCCAUCUGUGGUGAGUGCCAGUCAGAUUGUGGAGCUGGUUCCAGAACUCAGUUUAGACAUGGGAACU: 0.217 ratio
GUAGCUGGGACUACAGAAGAAUGCUGAAUUUCAGUCACUUGCUGAUGACUUCUGAUGUCCCAGCAAAUGUUGGCAUUGUUGACUGCUGAGAAGAUACUUCUGAGGACCCACGUCUAAGGU: 0.0725 ratio
AACUUCGUACAUAGAUUUCCCUUUGUAGCUGUUUCAAUUGGCUUCCUUGUGAAUAAAGAGAUGGAGUUUGGAAUUGUGUACAGUUGUGUGGAAGAUAAGAUGUACACCGGCAGGAAAGGG: 1.18 ratio
UGACAAGCACGAGCAUCAGCCAUGCCUUUCCUUGACAUACAGAAAAAGCUGGGCAUCAGCCUGGACCGGCACUUUAUGUUCCUAAGCGGUGAACAGCCCUAUAAGAACGCCGCUCGGUGC: 0.125 ratio
GAUAAGAAAAGCUUGUUGGAGACCCGCUUGCAUGUCACUGGCAGAGACCUGAGGUGUCAAAUAGCUGAAACUUUCGGAUUUCAAGAAAAUUACAUCAAAAUUGUCAUAAAUAAGAAACAG: 0.336 ratio
UUACUUUUGACUCCCUGGGUUAAAUUCCUGUGGGAAUCAUACAGGCAGUGUUUGGACCUUCUUCGAAACAAUUCUAGAGUAGAGCGCCUUUACCAUGAUAUCGCCCAACAAGCUUUCAAA: 0.19 ratio
AACAGAUUGUCUUUAAGCAUUCCAAGCAAUGCUUGGGGGGUGAUCAUUGUUGCCCAUAUAUAGUAAUACUGAGCUUUAAUGCUGUUCCAUGUUACAUCUUUCCUUCACUCCAGAAUUGUU: 0.616 ratio
GCGGCAGAAUCAUGGAGGACAUAAUGCAGCUCCCCAAGUCGCGCAUCAACGCCAGCAUGUUACCACAGUAUAUCGACAAGCCUGUCUGCUUCGUGGGGAAGCUGGAAAAGAUUCAUCCCA: 0.102 ratio
GAUAGGAAAAGCUUGUUGGAGACCCGCUUGCAUGUCACUGGUAGAGACCUGAGGUGUCAAAUAGCUGAAACUUUCGGAUUUCAAGAAAAUUACAUCAAGAUCGUAAUAAAUAAGAAACAG: 0.524 ratio
GGCCUGGGACCGUCCUGGCUAGUGCAAAAUAGCGGCAGUGGAGGCUCGAGAGGAAAGUUUGUUAGUGAGGCAGUGGUUAGAGGCCGUCAUGUACGGUCCUUUACUCGAUAGAUGUGUUCU: 0.92 ratio
UAAGUUAUUUUGUACAGUAAGUUAUUUUCUUAACAUUUUUAUAUUGCCAUGUUUAUUUUUUUUAGAUAAUUUGGUUCAUUAAGUACAUAGCUAAGGUAAUGAACAUCUUUUUCAGUAAUU: 2.37 ratio

Series 5
Target: Sal-like protein 4, full length isoform B (SALL4, Homo sapiens, UniProt Q9UJQ4-2, residues 1-616)
Method: universal PBM
Form: double-stranded DNA, one strand shown
Medium: in vitro
Concentration: not given
Notes: 8-mer, flanks averaged, mean of replicates
Reading: higher = stronger binding
Quantity: E-score
GCAGATCA: -0.0858
CGTTAACG: -0.0795
CCGGACTA: -0.203
GCGCCCTA: -0.221
CCGATAAC: 0.0131
GGAACATA: 0.181
CAAGTCGG: -0.124
CGTTTACA: 0.132
CGACTCAC: -0.159
TAGCGAAA: 0.217
ATTATTTA: 0.409
TGGCACCA: -0.214
CAGTTGGC: -0.109
CAGCCCCA: -0.212
GCCGAGAA: -0.0748
ACGTCTCG: -0.0284
GACAGATC: 0.00755
CTGGCCCC: -0.401
TGTACACA: 0.313
GGATGCCC: -0.319
AATATCAT: 0.376
GAAAAGCA: 0.0486
ACTAAGAT: 0.125

Series 6
Target: PABPC1L2, full length, GST fusion (mouse, UniProt A0ABA7IW68)
Method: RNAcompete
Form: RNA
Medium: in vitro
Concentration: 20 nM
Notes: 7-mer, probes averaged, single round
Relative to: mean of 7-mers
Reading: higher = stronger binding
Quantity: 7-mer Z-score
Residues (chain): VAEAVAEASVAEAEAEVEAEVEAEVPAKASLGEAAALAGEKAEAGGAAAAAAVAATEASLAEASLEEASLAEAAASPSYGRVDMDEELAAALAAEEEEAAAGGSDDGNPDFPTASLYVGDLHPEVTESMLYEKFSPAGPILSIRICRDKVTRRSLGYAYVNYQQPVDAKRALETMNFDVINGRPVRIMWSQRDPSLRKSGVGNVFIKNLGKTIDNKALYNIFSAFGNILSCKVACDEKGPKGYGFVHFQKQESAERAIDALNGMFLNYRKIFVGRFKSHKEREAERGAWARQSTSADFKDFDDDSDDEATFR
AUUCGGC: -0.173
UCUCCAC: -0.405
AAAGUCC: 0.635
CUCACUG: -0.3
UGAUAGG: -0.05
UUGUAAA: 0.602
GGUAUGA: -0.141
GAACCGU: -0.208
ACGGAUG: 0.0895
GCCAGCC: -0.403
GUGCUCU: -0.132
GUAGUCG: -0.28
GGUAGGU: 0.126
ACAUACC: -0.206
AUGGGCG: 0.244
GACACAC: -0.0736
UCAAAGC: -0.199
GAGCCUU: -0.418
CACUCUC: -0.421
ACGCACG: -0.0283
AGGUAGG: 0.314
CGUCGAA: -0.267
GAACAAC: 0.254
GCGUCGC: -0.258
AGCCCGG: -0.121
